Measured values collected from several papers.
Every numbered part comes from another study and shows a few of its results, in no order.
Sequence of UniProt P51451 (whole entry, looked up): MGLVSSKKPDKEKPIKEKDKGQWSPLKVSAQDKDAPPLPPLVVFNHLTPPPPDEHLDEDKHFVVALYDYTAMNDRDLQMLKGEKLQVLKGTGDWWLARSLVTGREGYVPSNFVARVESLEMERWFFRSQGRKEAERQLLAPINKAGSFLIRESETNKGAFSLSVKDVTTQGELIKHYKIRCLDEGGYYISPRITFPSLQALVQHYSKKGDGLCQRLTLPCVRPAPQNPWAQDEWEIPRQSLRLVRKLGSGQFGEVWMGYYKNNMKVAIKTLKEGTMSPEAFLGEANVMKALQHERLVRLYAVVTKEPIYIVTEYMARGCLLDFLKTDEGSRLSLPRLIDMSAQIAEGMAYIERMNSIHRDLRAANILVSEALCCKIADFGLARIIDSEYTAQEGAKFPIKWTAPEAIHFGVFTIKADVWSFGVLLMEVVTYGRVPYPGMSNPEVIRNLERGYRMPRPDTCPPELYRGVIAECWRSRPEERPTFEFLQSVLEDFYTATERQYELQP
Sequence of UniProt P08581 (whole entry, looked up): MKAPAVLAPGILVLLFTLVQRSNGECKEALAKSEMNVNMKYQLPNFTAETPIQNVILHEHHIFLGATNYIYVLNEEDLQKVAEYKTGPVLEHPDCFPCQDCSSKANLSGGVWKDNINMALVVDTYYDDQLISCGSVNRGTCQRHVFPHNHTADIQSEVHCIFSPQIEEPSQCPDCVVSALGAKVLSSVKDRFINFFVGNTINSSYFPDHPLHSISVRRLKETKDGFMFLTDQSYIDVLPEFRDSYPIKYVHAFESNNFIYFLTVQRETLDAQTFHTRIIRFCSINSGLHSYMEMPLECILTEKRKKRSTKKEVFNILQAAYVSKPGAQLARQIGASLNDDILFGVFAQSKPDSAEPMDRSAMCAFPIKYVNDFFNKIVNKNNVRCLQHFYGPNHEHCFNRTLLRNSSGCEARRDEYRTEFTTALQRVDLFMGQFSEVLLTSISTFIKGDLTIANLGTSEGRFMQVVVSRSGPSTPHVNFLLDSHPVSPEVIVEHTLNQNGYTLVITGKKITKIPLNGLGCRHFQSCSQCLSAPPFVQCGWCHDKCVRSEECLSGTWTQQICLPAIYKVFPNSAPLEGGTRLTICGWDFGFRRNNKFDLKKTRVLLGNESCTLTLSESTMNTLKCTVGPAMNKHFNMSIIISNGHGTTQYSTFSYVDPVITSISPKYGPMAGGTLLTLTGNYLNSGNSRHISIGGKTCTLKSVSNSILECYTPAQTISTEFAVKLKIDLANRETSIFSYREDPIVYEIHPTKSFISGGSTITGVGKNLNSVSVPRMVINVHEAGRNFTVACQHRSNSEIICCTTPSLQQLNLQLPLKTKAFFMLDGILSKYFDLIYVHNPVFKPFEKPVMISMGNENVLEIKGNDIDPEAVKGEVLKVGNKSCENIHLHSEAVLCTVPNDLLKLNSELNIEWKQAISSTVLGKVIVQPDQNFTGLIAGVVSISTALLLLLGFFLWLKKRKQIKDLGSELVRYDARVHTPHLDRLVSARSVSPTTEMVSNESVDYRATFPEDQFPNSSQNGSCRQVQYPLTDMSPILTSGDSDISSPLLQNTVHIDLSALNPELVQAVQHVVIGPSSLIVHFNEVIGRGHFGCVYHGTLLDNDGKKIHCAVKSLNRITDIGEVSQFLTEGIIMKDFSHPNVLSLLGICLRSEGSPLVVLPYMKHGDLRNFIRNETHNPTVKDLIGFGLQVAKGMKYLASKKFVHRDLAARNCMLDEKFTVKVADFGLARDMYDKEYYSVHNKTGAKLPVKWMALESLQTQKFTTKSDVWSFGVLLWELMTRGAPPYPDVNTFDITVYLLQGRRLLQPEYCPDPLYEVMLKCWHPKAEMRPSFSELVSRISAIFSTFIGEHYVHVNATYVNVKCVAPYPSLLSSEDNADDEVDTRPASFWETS
Sequence of UniProt P22607 (whole entry, unmodified, looked up): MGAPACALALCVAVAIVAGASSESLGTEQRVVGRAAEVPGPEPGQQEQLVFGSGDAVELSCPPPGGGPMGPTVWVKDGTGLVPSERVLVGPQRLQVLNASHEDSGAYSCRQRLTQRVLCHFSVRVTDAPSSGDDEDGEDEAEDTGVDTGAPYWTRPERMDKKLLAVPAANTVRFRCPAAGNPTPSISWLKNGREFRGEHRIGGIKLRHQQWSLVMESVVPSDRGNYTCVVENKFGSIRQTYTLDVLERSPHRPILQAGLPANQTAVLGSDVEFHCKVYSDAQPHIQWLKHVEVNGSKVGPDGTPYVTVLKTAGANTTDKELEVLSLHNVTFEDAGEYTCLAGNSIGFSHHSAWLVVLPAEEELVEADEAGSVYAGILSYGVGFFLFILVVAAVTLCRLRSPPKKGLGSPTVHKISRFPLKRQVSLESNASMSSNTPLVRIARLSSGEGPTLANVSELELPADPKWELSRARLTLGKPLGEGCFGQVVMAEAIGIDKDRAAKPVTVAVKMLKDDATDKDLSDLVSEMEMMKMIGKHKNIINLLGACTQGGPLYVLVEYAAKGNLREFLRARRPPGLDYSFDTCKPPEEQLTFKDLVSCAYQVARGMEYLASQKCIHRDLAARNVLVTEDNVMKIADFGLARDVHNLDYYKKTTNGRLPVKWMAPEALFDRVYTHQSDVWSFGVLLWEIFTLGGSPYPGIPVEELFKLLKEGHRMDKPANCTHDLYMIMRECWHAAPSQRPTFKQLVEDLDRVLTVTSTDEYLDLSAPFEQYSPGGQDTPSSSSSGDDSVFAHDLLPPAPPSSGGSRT
Sequence of UniProt P10721 (whole entry, unmodified, looked up): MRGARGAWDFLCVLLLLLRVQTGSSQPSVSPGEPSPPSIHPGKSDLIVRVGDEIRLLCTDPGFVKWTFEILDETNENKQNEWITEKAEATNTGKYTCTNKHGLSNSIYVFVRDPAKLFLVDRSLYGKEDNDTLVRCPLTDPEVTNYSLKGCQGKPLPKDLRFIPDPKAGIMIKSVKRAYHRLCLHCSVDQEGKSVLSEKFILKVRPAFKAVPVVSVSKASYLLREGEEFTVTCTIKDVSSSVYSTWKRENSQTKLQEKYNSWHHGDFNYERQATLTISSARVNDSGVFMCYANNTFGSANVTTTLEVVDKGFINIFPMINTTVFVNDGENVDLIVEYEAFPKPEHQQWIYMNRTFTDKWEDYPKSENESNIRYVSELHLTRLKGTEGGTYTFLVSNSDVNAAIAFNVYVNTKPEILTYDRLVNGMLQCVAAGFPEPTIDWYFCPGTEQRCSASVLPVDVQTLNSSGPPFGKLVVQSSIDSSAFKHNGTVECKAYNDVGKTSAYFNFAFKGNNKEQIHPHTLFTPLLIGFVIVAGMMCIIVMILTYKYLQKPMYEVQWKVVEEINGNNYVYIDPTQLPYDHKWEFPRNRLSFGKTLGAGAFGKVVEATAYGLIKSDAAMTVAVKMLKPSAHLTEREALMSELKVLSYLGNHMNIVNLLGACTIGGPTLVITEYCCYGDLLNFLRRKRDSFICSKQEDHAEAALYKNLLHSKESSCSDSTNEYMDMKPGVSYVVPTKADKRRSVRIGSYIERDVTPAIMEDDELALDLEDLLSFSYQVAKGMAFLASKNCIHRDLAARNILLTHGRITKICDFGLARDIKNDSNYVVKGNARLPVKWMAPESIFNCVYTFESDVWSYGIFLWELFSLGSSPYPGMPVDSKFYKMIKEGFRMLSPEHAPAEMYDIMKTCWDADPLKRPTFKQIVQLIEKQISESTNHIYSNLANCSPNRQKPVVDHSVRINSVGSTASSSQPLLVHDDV

Sample 1
Target: Insulin receptor-related protein (INSRR, Homo sapiens, UniProt P14616)
Sequence of UniProt P14616 (whole entry, looked up): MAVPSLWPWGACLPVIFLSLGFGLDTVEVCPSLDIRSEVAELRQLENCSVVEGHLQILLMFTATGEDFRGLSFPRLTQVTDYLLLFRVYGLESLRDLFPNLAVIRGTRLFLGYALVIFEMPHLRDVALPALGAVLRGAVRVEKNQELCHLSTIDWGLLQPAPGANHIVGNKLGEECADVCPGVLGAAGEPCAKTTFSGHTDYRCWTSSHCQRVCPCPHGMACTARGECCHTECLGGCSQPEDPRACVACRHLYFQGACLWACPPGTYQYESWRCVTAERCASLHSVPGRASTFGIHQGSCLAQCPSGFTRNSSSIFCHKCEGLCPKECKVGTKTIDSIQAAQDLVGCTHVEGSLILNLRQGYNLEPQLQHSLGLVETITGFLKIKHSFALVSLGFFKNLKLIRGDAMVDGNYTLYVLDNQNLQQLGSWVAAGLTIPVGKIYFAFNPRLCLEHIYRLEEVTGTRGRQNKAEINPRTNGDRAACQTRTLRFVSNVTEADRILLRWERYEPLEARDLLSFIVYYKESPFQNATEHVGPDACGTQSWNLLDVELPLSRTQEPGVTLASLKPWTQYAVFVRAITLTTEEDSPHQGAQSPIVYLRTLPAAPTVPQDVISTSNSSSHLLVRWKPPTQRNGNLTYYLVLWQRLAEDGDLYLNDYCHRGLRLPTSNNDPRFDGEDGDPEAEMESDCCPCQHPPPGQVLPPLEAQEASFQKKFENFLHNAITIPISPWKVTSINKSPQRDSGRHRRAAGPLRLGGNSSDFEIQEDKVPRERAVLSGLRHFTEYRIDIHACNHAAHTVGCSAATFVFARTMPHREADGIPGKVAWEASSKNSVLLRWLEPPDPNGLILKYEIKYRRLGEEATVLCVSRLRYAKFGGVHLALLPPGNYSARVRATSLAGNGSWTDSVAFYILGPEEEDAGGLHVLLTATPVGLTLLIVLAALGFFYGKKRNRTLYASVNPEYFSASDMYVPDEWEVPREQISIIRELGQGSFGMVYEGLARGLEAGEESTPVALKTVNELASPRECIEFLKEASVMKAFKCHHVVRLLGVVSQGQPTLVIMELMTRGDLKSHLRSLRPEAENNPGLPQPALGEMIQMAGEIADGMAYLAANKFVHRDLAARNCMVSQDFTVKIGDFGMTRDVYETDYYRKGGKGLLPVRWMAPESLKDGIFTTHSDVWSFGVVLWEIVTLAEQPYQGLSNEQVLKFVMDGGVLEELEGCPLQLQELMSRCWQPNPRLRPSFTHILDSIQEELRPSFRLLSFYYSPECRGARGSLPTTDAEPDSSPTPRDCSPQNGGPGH
Effect on: enzyme activity
Action: inhibitor
Concentration: 0.5 µM
Relative to: control
SMILES | remaining activity
O=c1cc(N2CCOCC2)oc2c1ccc1ccccc12 | 97.4%
COc1ccc(-c2cnc3c(-c4ccsc4)cnn3c2)cc1 | 98.7%
COc1cc2ncnc(N3CCN(C(=O)Nc4ccc(Oc5ccccc5)cc4)CC3)c2cc1OC | 96.8%
C[S+]([O-])c1ccc(-c2nc(-c3ccncc3)c(-c3ccc(F)cc3)[nH]2)cc1 (stereo not drawn) | 100%
CC(C)[C@H](CO)Nc1nc(Nc2cccc(Cl)c2)c2ncn(C(C)C)c2n1 | 88.2%
O=C1NC(=O)/C(=C/c2ccc3nccnc3c2)S1 | 111%
Cc1ccc(NC(=O)c2ccc(CN3CCN(C)CC3)cc2)cc1Nc1nccc(-c2cccnc2)n1 | 108%
Cc1nc(Nc2ncc(C(=O)Nc3c(C)cccc3Cl)s2)cc(N2CCN(CCO)CC2)n1 | 96.9%
CCC(=O)Nc1ccc2ncnc(Nc3cccc(Br)c3)c2c1 | 98.4%
COc1cc2ncnc(Nc3ccc(OCc4ccccc4)cc3)c2cc1OC | 99.9%
COc1ccc(Cl)cc1NC(=O)Nc1cc(C)nc2ccccc12 | 100%
Cn1cc(/C=C2\C(=O)Nc3ccc(S(N)(=O)=O)cc32)c2ccccc21 | 86.9%
Cn1cnc2cc3c(Nc4cccc(Br)c4)ncnc3cc21 | 92.1%
CCOc1cc2ncnc(Nc3cccc(Br)c3)c2cc1OCC | 88.8%
CC(C)c1nn(-c2c(Cl)cccc2Cl)c2nc(Cc3ccc(OCCO)cc3)[nH]c(=O)c12 | 94.2%
COc1cc2ncc(-c3ccccc3)nc2cc1OC | 99.2%
CCN1/C(=C/C(C)=O)Sc2ccc(OC)cc21 | 91.6%
O=C(Nc1ccc(Cl)cc1)c1ccccc1NCc1ccncc1 | 96.1%
Nc1[nH]nc2nnc(-c3c(-c4ccccc4)nn4ccccc34)cc12 | 95.7%
CN(C)CCCn1cc(C2=C(c3c[nH]c4ccccc34)C(=O)NC2=O)c2ccccc21 | 91.3%
CS(=O)(=O)CCNCc1ccc(-c2ccc3ncnc(Nc4ccc(OCc5cccc(F)c5)c(Cl)c4)c3c2)o1 | 104%
CC(=O)O/N=C1/C(c2c(O)[nH]c3cc(Br)ccc23)=Nc2ccccc21 | 96.7%

Sample 2
Host: human
Sample: microsomes or S9
Concentration: 2 µM
Time: 0.5 h
Compound | remaining compound [%]
O=C1C[C@H](n2nc(-c3ccc(F)cc3)oc2=S)[C@H]2CO[C@@H]1O2 | 6.37
COc1ccc(CCN2CCC(NC(=O)c3cc4cc(Br)ccc4o3)CC2)cc1 | 14.1
CN(C)CCCOc1ccc(CN2CCC(NC(=O)c3ccc(Br)o3)CC2)cc1 | 97.9
CCc1ccc(NC(=O)CN(CCc2ccccc2)S(=O)(=O)c2ccc(C)cc2)cc1 | 2.76
CC(C)COc1cc(=O)n2c(c1C(=O)NCCCn1cccn1)CCCCC2 | 57.2
O=C1CCc2cc(Cl)ccc2N1Cc1ccc(Cl)cc1Cl | 54.2
Cc1cc(C)n2nc(C(=O)N3C[C@@H](N)C[C@H]3C(=O)NC(C)C)cc2n1 | 82.3
Cc1cc(C)cc(-n2nc(C(=O)N(CC(N)=O)CC(C)C)cc2C)c1 | 40.6
CCOc1ccsc1C1=NOC(C)(COCc2c(Cl)cccc2Cl)C1 (stereo not drawn) | 1.81
CN(C(=O)c1cc2c(s1)-c1ccsc1CC2)C1CCCCC1 | 1.74
CN(c1ccc(Cl)nn1)c1ccc(N)cc1Cl | 88.9
O=S(=O)(Nc1cc(F)cc(F)c1)c1c[nH]c2ncccc12 | 78.5

Sample 3
Cell line: A-375
Concentration: 100 µM
Time: 18 h
Structure (SMILES) | viability
Nc1c(CC(=O)O)cccc1C(=O)c1ccccc1 | 108%
CN1CCN(c2c(F)cc3c(=O)c(C(=O)O)cn(CCF)c3c2F)CC1 | 95.7%
CCOCC(O)COc1ccc(NC(=O)CC[S+](C)C)cc1 (stereo not drawn) | 104%
CC1(C)CCC(C)(C)c2cc(NC(=O)c3ccc(C(=O)O)cc3)ccc21 | 62.7%
CCC(=O)c1c(O)cc(O)cc1O | 69.5%
COc1cc(/C=C/C(=O)N2CCN(CC(=O)N3CCCC3)CC2)cc(OC)c1OC | 101%
CC[C@H]1OC(=O)[C@H](C)[C@@H](O[C@H]2C[C@@](C)(OC)[C@@H](O)[C@H](C)O2)[C@H](C)[C@@H](O[C@@H]2O[C@H](C)C[C@H](N(C)C)[C@H]2O)[C@](C)(O)C[C@@H](C)/C(=N\OCOCCOC)[C@H](C)[C@@H](O)[C@]1(C)O | 73%
Cc1ncc([N+](=O)[O-])n1C | 92.6%
CC(Cc1cccc(C(F)(F)F)c1)NCCOC(=O)c1ccccc1 (stereo not drawn) | 8.3%
CCC(C)(Oc1ccc(C2(c3ccc(OC(C)(CC)C(=O)O)cc3)CCCCC2)cc1)C(=O)O (stereo not drawn) | 92%
C#C[C@]1(OC(C)=O)CC[C@H]2[C@@H]3CCC4=C[C@@H](OC(C)=O)CC[C@@H]4[C@H]3CC[C@@]21C | 39.8%
CCc1nc(N)nc(N)c1-c1ccc(Cl)cc1 | 67.3%

Sample 4
SMILES: Cn1cc(Cl)c2c(Oc3c(F)cc(Nc4cc(Cl)nc(N)n4)cc3F)ccnc21
Effect on: cell-free assay
Technique: competition with immobilised ligand
Concentration: 0.1 µM
target | remaining binding [%]
Tyrosine-protein kinase ABL1, phosphorylated (ABL1, Homo sapiens, UniProt P00519, T315I) | 86
Hepatocyte growth factor receptor (MET, Homo sapiens, UniProt P08581) | 90
Tyrosine-protein kinase Blk (BLK, Homo sapiens, UniProt P51451) | 96
Serine/threonine-protein kinase 32B (STK32B, Homo sapiens, UniProt Q9NY57) | 99
Fibroblast growth factor receptor 3 (FGFR3, Homo sapiens, UniProt P22607, G697C) | 100
Calcium/calmodulin-dependent protein kinase type II subunit alpha (CAMK2A, Homo sapiens, UniProt Q9UQM7) | 82
Fibroblast growth factor receptor 2 (FGFR2, Homo sapiens, UniProt P21802) | 98
Mast/stem cell growth factor receptor Kit (KIT, Homo sapiens, UniProt P10721, D816V) | 97

Excerpt of the above (sample 1):
SMILES | remaining activity
Cn1cnc2cc3c(Nc4cccc(Br)c4)ncnc3cc21 | 92.1%
CC(=O)O/N=C1/C(c2c(O)[nH]c3cc(Br)ccc23)=Nc2ccccc21 | 96.7%
CC(C)[C@H](CO)Nc1nc(Nc2cccc(Cl)c2)c2ncn(C(C)C)c2n1 | 88.2%
COc1cc2ncc(-c3ccccc3)nc2cc1OC | 99.2%
O=C1NC(=O)/C(=C/c2ccc3nccnc3c2)S1 | 111%
COc1ccc(Cl)cc1NC(=O)Nc1cc(C)nc2ccccc12 | 100%
CCOc1cc2ncnc(Nc3cccc(Br)c3)c2cc1OCC | 88.8%
